Measurements pooled from the literature.
Each numbered part is a random draw from the data of one study; scales do not carry over between parts. Several values in a cell are separate wells, animals, samples, runs or records.

Sample 1
Target: Hepatocyte nuclear factor 3-alpha (Foxa1, Mus musculus, UniProt P35582, residues 1-468, full length assumed)
Sequence of UniProt P35582 (whole entry, looked up): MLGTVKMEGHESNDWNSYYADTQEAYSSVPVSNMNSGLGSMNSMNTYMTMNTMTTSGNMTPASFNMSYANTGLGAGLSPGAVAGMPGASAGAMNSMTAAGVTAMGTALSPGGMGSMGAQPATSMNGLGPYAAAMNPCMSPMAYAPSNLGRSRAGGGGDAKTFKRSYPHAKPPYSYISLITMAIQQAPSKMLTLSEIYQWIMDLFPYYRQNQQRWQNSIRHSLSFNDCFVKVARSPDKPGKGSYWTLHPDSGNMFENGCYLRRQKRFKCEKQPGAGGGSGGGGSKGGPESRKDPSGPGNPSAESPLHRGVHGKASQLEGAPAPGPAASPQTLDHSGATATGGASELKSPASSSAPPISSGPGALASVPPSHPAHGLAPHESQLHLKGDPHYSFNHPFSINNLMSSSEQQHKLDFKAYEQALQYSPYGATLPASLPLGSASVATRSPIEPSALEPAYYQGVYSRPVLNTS
Method: EMSA with sequencing
Molecule type: double-stranded DNA, one strand shown
Medium: in vitro
Tested at: 10 and 20 nM
Notes: whole designed probe, mean of two concentrations, ends assumed
Reference: negative control set to 0
Direction: higher = stronger binding
Measurement: normalised bound fraction
All sequences stand within: GTGAGCGGTGCCCATTGATGGGGAAC … TTTCACTGGGATCGTGGGGAC
ATAGAAATTAAACAGATATAAAACTAGTAAACTCAGATAAAACTAGCACATATGTGAGAGCAAATTCAGCAAAACAAACCTCTGAATTTCAAAGTAAACATGTCCTTGAAGATGTGGAAACAGGGTCAAACTCCACCAATGTTCTGTGAGTCACATATTTACTCTGAGATTCAGGGGTCAAGGGGGAAAGTTA: 0.253 ratio
AAATAAGGCGCGCGAGAGAGGCCAACACGTCGCGGAGGGAGATGTTGTTATTTTTTGCTGTTGTGCGTCCCTGAGCTCACATCCACCTGCTGGGTAAACAACCGGGCTCCCAGAAAAAAAAAATCGCAATTGCCAAAGAATGGGGGGGGGGGTTGGGGGGAGGGATCCAGGGAGGGGGAAGTGAGGGGCGTCC: 0.403 ratio
TCCACAGTAGAAACGAAGGAGATGACAGATACCCCGGCACCAAAACTGACACCAGGTTTTTGTTGCTTCTTCCACTATATAATGGAGAAGTTCTGTTTACTCTATACTGTTAACATGTTGTGCAACTGGCTTAAGGAAACCCAAGAAACTGAATCACATCAAAGGTATGTCAGAGGTATGTGAACCAGAGCAA: 0.366 ratio
GCGTGAGCCCCCATGCTTGGCCTTACCTTTCTACTTTTATAATTCTGTATGTTATTATTTTATGAACATGAAGAAACTTTAGTAAATGTACTTGTTTACATAGTTATGTGAATAGATTAGATAAACATAAAAGGAGGAGACATACAATGGGGGAAGAAGAAGAAGTCCCCTGTAAGATGTCACTGTCTGGGTT: 0.488 ratio
CACTCATAGTCTTGCTATCCTTCATATACAGAGATGACCCTCCCAAGCCTAAAATCAACAGGGGGAGGCATAGAGCTGTCCTTCTGGCTCTAATGTTTGCTTTACCATCATCCACGCCCATTCTTAGTCCAGCATGTGAGAGCCAGTGTGAAGTGAGCAGAATATGGCATAAGTATGGAGTCATACATCCTTA: 0.349 ratio
GTAGCCTTTTTCAGATTTCATCAAATATGGTGTTAGGGGGCCCTCATTTGTCCACAAAAAATATGGTGACAAGGGATGATGACGTGAGTCAGAGTAAACACCATTTACTCACTTTGCGTCACTGTTTATTAGAAGGGCTGTTCGGACTTTCTAGTTGCCAAACTGGACCGTGTATGCTCTCTGAAGAGCGGGC: 0.19 ratio
CTTGATTTATGGCTAGAATATGACATACATGAGCATTTGCCTTTCCTAAGATAATTCACAAGCATCCCCCCAAAAAATATAGATAGGGATCAAAGTAAACAAACAAACAAACAAAAACAGAAGCAATTGAATTTGACCTTATAATGGTCATAAAGTGATGATGGACATGACCAAAGCCACAACATCAGTAGAA: 0.542 ratio
ATCTTCCCCCTCTTCCTTGCCCCACCAGCTCACCTACGGGGGTTATTTGCACAAAGGAAAATAAATAAAGCCGGCATTCGTTAACCCTCTTCTGGCGCAAACTGCTGTTTGCTCTGCATCTAACATGGTCCTTACGCGAGGCGTGGCTCCGGGAGAGCAAAGCACCGTGTCAGGCGCATGATCCGGGGTGGCC: 0.385 ratio

Sample 2
Target: Replicase polyprotein 1ab, nsp12 with nsp7/nsp8 (rep, Severe acute respiratory syndrome coronavirus 2, UniProt P0DTD1)
Mode: inhibitor
Tested at: 20 µM
Measurement: inhibition
Cc1c2oc3c(C)ccc(C(=O)N[C@@H]4C(=O)N[C@H](C(C)C)C(=O)N5CCC[C@H]5C(=O)N(C)CC(=O)N(C)[C@@H](C(C)C)C(=O)O[C@@H]4C)c3nc-2c(C(=O)N[C@@H]2C(=O)N[C@H](C(C)C)C(=O)N3CCC[C@H]3C(=O)N(C)CC(=O)N(C)[C@@H](C(C)C)C(=O)O[C@@H]2C)c(N)c1=O: 16.8%
CCS(=O)(=O)N(C)[C@H]1c2cc(C#N)ccc2OC(C)(C)[C@@H]1O: -4.27%
C[C@H](Nc1ncnc2[nH]cnc12)c1cc2ccc(F)cc2nc1-c1ccccn1: -9.53% and -3.06%
C=C[C@@]1(C)CC(=O)[C@]2(O)[C@@]3(C)[C@@H](O)CCC(C)(C)[C@@H]3[C@H](O)[C@H](OC(C)=O)[C@@]2(C)O1: -14% and -17.4%
CCn1c(=O)c(-c2cc[nH]n2)cc2c(C)nc(N)nc21: -1.88% and -4.06%
CCOc1ccc(-n2c([C@@H](C)N(Cc3cccnc3)C(=O)Cc3ccc(OC(F)(F)F)cc3)nc3ncccc3c2=O)cc1 (racemic): 1.03%
O=C(O)/C=C\c1c[nH]cn1: -2.92% and -11.1%
CN1C(=O)N(c2ccc(C#N)c(C(F)(F)F)c2)C(=O)[C@@]1(CO)c1ccccc1: 2.28%
CC1=C(C(=O)O)N2C(=O)[C@@H](NC(=O)[C@H](N)C3=CCC=CC3)[C@H]2SC1: 10.9% and -1.45%

Other studies, line by line
CC(C)n1cnc(-c2ccc(F)cc2)c1-c1ncc(C(=O)Nc2ccc(N3CCN(C)CC3)cc2)[nH]1  patients with neoplasm TEAE (phase 2a clinical trial; patients with idiopathic pulmonary fibrosis; 30 mg once daily, all grades, SOC neoplasms benign, malignant, unspecified): 0%
CNC(=C[N+](=O)[O-])NCCSCc1ccc(CN(C)C)o1  GFP-positive cells (Vesicular stomatitis virus; pseudovirus infection, FDA-approved drug library screen; concentration not given, SARS-CoV-2 spike pseudotype; reference: vehicle): 82.5%
Cc1cc(OI)c(C(C)C)cc1-c1cc(C(C)C)c(OI)cc1C  inhibition (Replicase polyprotein 1ab, main protease (rep, Severe acute respiratory syndrome coronavirus 2, UniProt P0DTD1); enzyme activity, inhibitor; 20 µM, primary screen): 29%

A few entries again (sample 1):
TCCACAGTAGAAACGAAGGAGATGACAGATACCCCGGCACCAAAACTGACACCAGGTTTTTGTTGCTTCTTCCACTATATAATGGAGAAGTTCTGTTTACTCTATACTGTTAACATGTTGTGCAACTGGCTTAAGGAAACCCAAGAAACTGAATCACATCAAAGGTATGTCAGAGGTATGTGAACCAGAGCAA: 0.366 ratio
